# Published values of several laboratories.
# Numbered parts are unrelated; each lists some results of a single study.

# Set 1
# Target: RING finger protein unkempt homolog, zinc fingers 1-6, GST-SBP tag (UNK, Homo sapiens, UniProt Q9C0B0, residues 30-357)
# Technique: RNA Bind-n-Seq
# Molecule type: RNA
# Medium: in vitro
# Concentration: not given
# Notes: RNA with constant flanks, human-mouse chimeric sites, ends assumed
# Baseline: input RNA pool
# Direction: higher = stronger binding
# All sequences stand within: GGGAGUUCUACAGUCCGACGAUC … CAACAGAGGAUUGAGCAUCA
# Target sequence (chain): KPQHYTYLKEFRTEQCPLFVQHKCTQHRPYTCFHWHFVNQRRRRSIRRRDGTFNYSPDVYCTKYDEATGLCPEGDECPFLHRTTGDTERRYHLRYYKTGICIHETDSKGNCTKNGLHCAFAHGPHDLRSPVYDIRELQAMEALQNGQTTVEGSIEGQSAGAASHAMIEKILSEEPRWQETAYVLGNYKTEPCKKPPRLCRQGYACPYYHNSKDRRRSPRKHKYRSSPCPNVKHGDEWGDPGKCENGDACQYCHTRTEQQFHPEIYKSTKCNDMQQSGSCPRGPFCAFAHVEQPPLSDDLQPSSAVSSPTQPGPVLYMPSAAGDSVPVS
Oligonucleotide,bound/input enrichment [ratio]
ACUCAGAGAUUAUAUUCAAUUGAAGUGGGGAGUAAAGGUGUGGCCACCACACCUAACUUGAUGGAUAUAUAUUUUUUUUAAUAUGAAUCUUCCUGUUCGUCCAGGGAAGAAAGAUUUGUU,0.694
AUGGAACAUUUCGAUGCAUCACUUAGUACCUAUUUCAAGGCCUUCCUGGGCCCCCGAGAUACAAGAGUCAAAGGAUGGUUCCUCCUGGACAAUUACAUACCCACAUUUGUCUGUUCUGUU,0.286
AGAGAAAUGAGAAAGAAUCUUACACAAGAAGAGAUGCAAAGAAUGUCUACUAGAGUCCUUUUAGCCACUCUUUCCAUCCCUAUUACUCCUGAGCGAACUGAUAUUGCUCGACUUUUGGAU,0.0797
GCGGCAGAAUCAUGGAGGACAUGAUGGAGCUCCCCAAAGCGCGCGUCAACGCCGGCAUGUUACCACAGUAUAUCGACCGGCCCGUGUGCUUCGUGGGGAAGCUGGAAAAGAUUCAUCCCA,0.0643
CAGCUGCAGACAGAAAAGGAUGAAAAGGAGCUGUAUAAGGUACAUUUGAAGAAUACAGAAAUAGAAAAUACGAAGCUUGUGUCAGAGGUCCAGACUUUAAAGAAUUUAGAUGGAAACAAA,3.96
UAAGUCCUGUGCCAGCACUUCGCUCAUAAAGUUUUAAAUUCAAGAAAAAUAGUGUUUGUUUCCUGAUUAUUGUAUCCAAUACUUUGCCUAGUAUGUAACUCACUCUUCUGGAUAAAUAAA,11.3
UACUCAACUUUCUUUCCACAUUUUGAAUUCCAAGACAUUAUUCCUCCAGAUGACUUCCUAACGAGUGAUGAAGAAGUAGAUUUGGUUUUAUUUGGAACUAUGAGAGGACAAGUUGUUGGA,0.278
UGGCGCCUGCGCUCCCCACUCGUGUUUGUAUUUUUAUUUUUAUAAGAUACAUGUAUUUACAAUUGAGCUUUUGUUACAUAAUGCUGAAAACAUCUCUGAGAUUAUGAAAAAUGUUUCAAU,0.137

# Set 2
# Target: Sal-like protein 4, full length isoform A (SALL4, Homo sapiens, UniProt Q9UJQ4, residues 1-1053)
# Sequence of UniProt Q9UJQ4 (whole entry, looked up): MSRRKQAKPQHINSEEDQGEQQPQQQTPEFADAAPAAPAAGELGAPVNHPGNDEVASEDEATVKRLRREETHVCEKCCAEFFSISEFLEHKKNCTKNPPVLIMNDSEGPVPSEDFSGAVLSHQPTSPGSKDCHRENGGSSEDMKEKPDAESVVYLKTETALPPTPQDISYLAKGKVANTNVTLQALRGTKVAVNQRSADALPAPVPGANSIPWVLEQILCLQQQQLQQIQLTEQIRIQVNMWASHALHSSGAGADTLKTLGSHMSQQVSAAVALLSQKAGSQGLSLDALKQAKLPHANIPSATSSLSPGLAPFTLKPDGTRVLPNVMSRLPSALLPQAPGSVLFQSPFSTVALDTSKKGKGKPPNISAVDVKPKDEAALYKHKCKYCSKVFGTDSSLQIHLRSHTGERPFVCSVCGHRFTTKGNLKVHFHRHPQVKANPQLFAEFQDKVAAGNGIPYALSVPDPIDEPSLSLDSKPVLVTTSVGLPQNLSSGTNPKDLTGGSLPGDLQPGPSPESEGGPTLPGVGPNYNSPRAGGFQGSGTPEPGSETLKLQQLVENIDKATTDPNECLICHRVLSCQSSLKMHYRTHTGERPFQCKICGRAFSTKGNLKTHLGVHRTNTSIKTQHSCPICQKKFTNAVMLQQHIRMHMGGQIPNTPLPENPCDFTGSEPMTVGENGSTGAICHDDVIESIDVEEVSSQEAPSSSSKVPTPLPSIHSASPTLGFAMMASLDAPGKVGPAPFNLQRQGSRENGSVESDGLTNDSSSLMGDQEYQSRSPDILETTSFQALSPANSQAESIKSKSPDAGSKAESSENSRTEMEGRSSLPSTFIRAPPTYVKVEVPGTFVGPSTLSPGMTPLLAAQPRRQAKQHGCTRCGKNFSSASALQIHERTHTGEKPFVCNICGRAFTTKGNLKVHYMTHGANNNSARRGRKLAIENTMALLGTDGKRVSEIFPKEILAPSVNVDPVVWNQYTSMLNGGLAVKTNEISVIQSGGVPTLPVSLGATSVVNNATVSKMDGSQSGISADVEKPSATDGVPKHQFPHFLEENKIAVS
# Technique: universal PBM
# Molecule type: double-stranded DNA, one strand shown
# Medium: in vitro
# Concentration: 600 nM
# Notes: 8-mer, flanks averaged, mean of replicates
# Direction: higher = stronger binding
Oligonucleotide,E-score
GGTAGCCA,-0.197
ATGACTAG,0.161
AGGCATTG,-0.0122
CGAGCCCC,-0.317
CGAGGCAA,0.0345
CCTGCTCA,-0.137
TAGTGACA,0.101
AGGCGAGC,-0.299
CGCTCAGA,-0.215
TCGTATAA,0.267
CCGCCCCC,-0.334
AGGGCTAC,-0.199
CCACGCAG,-0.131
AATGTCCT,0.14
CCAACAAC,-0.189
CTGAAAAG,0.0185
GCCAGCCC,-0.325
ACGATCAT,0.0728
CGATCACC,-0.0474
GGCCTACA,-0.122
CGGTGCTA,-0.161

# Set 3
# Target: Histone acetyltransferase KAT6A, both winged helices, GST fusion (KAT6A, Homo sapiens, UniProt Q92794, residues 1-181)
# Technique: protein binding microarray
# Molecule type: double-stranded DNA, one strand shown
# Medium: in vitro
# Concentration: not given
# Notes: 8-mer, flanks averaged, mean of 2 arrays, mostly near background
# Baseline: not given
# Direction: higher = stronger binding
# Target sequence (chain): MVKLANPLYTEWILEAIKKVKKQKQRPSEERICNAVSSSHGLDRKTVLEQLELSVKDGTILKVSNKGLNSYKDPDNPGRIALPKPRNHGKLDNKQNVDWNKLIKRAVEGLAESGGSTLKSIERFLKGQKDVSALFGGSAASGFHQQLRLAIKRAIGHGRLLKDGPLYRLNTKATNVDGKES
Oligonucleotide,E-score
AGACGTTA,-0.0717
ACGACAGA,-0.0638
CCAGTCGA,-0.0944
AATTGATG,-0.165
AACGCCCA,-0.127
CCATGGTA,-0.145
ATAAACGG,0.2
AGCGACGA,-0.0723
AGGAGTCG,-0.223
CACTCATC,-0.146
ACGGGCGG,0.258
CGAACTGC,0.0364
TTAAACAA,-0.153
AAGCGAGG,-0.0418
TGTAGAAA,-0.216
CTTTCGAC,-0.0886
CTCGTGCC,-0.0222
ATGGGTGA,-0.112
AAACGGAT,0.156
CTTTCGTA,-0.0526
ATAAACCA,-0.0691
GTAATCGA,-0.101

# Set 4
# Cell line: yeast with cyclin F-Cln2 chimera
# Effect on: cell growth
# Mode: binder
# Technique: competitive growth deep sequencing
# Molecule type: peptide
# Concentration: concentration not given
# Notes: peptide tiling library
# Direction: direction not given
Molecule,growth enrichment score
VLPGGVPSPGASLTSM,0.623
TSPGPVLLHPSPSTTQ,-0.0715
GAEELEDLVHFSVSEL,0.72
FQDSGYNELKSCSFDN,0.46
VRDLSYRLVFLACCVA,1.17
RNRGPKLNAMLRLGVL,1.18
DGCSPIKNWSPMRL,0.3
TRRRLFVENDSP,4.1
KDDDKAWEYEERDRRS,-0.478
VLVRTSACRSLFGPVD,4

# Other studies, line by line
Substance,target,test,system,setting,how to read,endpoint,result
"PhoQ, residues 284 288 289 292 302 303 HSYLQF","PhoP, residues 12 14 15 18 19 YHFSH (Escherichia coli, UniProt P23836)","Sort-seq, refers to: YFP reporter",E. coli,"PhoQ-PhoP variant library, added: 10 µM Mg2+","baseline: high Mg2+ state, higher = stronger signaling",fold induction,13.1

# Excerpt of the above (set 2):
Oligonucleotide,E-score
CCAACAAC,-0.189
CCACGCAG,-0.131
TCGTATAA,0.267
CGATCACC,-0.0474
